Measurements gathered from unrelated publications.
± gives the spread as reported.
Target: Transporter (Slc6a2, Rattus norvegicus, UniProt Q63380)

Cc1ccc([C@@H]2OC(N)=N[C@H]2C)cc1 (relative stereo)
EC50 (substrate release, releaser; rat brain synaptosomes; together with: [3H]MPP+ 9 nM): 31.6 ± 4.6 nM

CNC(C)C(=O)c1ccccc1Cl (centres unmarked)
EC50 (releaser): 93 nM

COc1cc2c(cc1C)CC(N)C2 (centres unmarked)
EC50: 3100 ± 728 nM

CNC(C)C(=O)c1ccccc1 (centres unmarked)
EC50 (substrate release, releasing agent; rat brain synaptosomes; together with: [3H]MPP+): 23 nM

CC1NCCOC1c1ccccc1F (centres unmarked)
EC50 (concentration not given): 28 ± 3 nM

CNC(C)C(=O)c1ccc(C)cc1 (centres unmarked)
EC50 (substrate release, releaser; rat brain synaptosomes; together with: [3H]MPP+): 63 nM

CNC(C)Cc1ccc2c(c1)OCO2 (single isomer, unassigned; (+))
EC50 (substrate release, releaser; rat brain synaptosomes; together with: [3H]MPP+ 9 nM): 98.3 ± 15 nM

CNC(C)C(=O)c1cccc(OC)c1 (centres unmarked)
EC50 (releaser): 111 nM

NC1=NCC(c2ccccc2)O1 (centres unmarked)
EC50 (biochemical): 15.1 ± 3.5 nM

CNC(C)Cc1ccc2ccoc2c1 (centres unmarked)
EC50 (transporter-mediated release, substrate; rat brain synaptosomes; 30 min, together with: [3H]MPP+): 14 ± 2 nM

C[C@@H]1N=C(N)O[C@H]1c1ccc2c(c1)OCO2 (racemic)
EC50 (substrate release, releaser; rat brain synaptosomes; together with: [3H]MPP+ 9 nM): 38.9 ± 4.7 nM

CC(N)Cc1c[nH]c2ccccc12 (centres unmarked)
EC50 (transmitter release, releaser; rat brain synaptosomes; together with: [3H]MPP+): 112 ± 6 nM

C[C@@H]1N=C(N)O[C@@H]1c1ccccc1 (racemic)
EC50 (substrate release, releaser, [3H]MPP+ release; rat brain synaptosomes; together with: [3H]MPP+ 9 nM): 4.8 ± 0.9 nM

NC1Cc2cc3c(cc2C1)OCO3
EC50: 117 ± 17 nM
